Assay results collected from several papers.
Every numbered part comes from another study and shows a few of its results, in no order.

Set 1
Target: Centromere-binding protein 1, full length, N-terminal tag (CBF1, Saccharomyces cerevisiae, UniProt P17106, residues 1-351)
Sequence of UniProt P17106 (whole entry, looked up): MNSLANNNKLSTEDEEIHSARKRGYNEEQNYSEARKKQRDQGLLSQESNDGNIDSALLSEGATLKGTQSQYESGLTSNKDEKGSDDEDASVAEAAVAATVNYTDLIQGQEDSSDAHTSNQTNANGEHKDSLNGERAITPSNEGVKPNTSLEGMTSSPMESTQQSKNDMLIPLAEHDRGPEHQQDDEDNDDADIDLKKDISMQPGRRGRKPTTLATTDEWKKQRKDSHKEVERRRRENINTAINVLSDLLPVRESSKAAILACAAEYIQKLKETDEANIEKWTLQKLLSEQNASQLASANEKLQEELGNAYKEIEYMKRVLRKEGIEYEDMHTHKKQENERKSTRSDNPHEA
Technique: protein-binding microarray
Form: double-stranded DNA, one strand shown
Medium: in vitro
Tested at: 0.8 µM
Notes: whole 60-bp probe, no competitor
Reading: higher = stronger binding
All sequences stand within: … GTCTTGATTCGCTTGACGCTGCTG
Strand | fluorescence intensity
CTAACGTCATAGAAAAACCACGTGAAAAAAAAATTC | 5330 a.u.
CTATAATTAAATTATCACGGCTCATTCATTTGATTC | 569 a.u.
GAATCCGGCCATAGTAACACCACGCAAGGTAACTAG | 522 a.u.
GAATATAGCTACACTCTCAACTGATTGCTTCACTAG | 485 a.u.
GAACCAACTGTTTGCATGGTGGTGTTGATTGCATAG | 494 a.u.

Set 2
Target: RNA binding protein fox-1 homolog 2, RRM domain, GST-SBP tag (RBFOX2, Homo sapiens, UniProt O43251-10, residues 100-194)
Technique: RNA Bind-n-Seq
Form: RNA
Medium: in vitro
Tested at: 365 nM
Notes: natural RNA segment, single round, ends assumed
Reference: no-protein control
Reading: higher = stronger binding
All sequences stand within: GGGAGUUCUACAGUCCGACGAUC … UGGAAUUCUCGGGUGCCAA
Strand | RBNS enrichment (R)
AAUUAGAAGUGCCUCUGAGCCUUGUGAAGUGUGUGCGCAAGCCCCCAUGGAGAAAUGGAGACAUCUUGUCCCCACCUGAGGAGUGGACAUCUGCCUGAUUCUUGCCAACA | 0.488
AGAAAAAAAAGAUUUUCUUUACAUAAAGUGAAUCAAAUUUGACAUUAUUUUAGAUCCCAGAGAAAUCAGGUGUGAUUAGUUCUCCAGGCAUGAAUGCAUCGUCCCUUUAU | 3.5
UCCUAGUUUUUCAUAGGAGUCUAGGAUUUUGAUCUUUUAAAAAAUACAGUGUGAUUUCAUGCUUUUGAACAUCUUUUUUUCAUUGAAACAAAUUCAAGUUCUUGGCUUAA | 0.576
CAUAAAAACAGAAAGAACAACGCCCUGGAGCCAAUCUUCAAGAAAGGAAUUUCCAAAGGAUAAUAUUUUUCUAAUAAAUGCGGCUGCAACCUCCUGUGCAUUUAAUUAAA | 1.17
CUGGGGUUCCCUGUUGGUGCCACAGGGCACUUCCUUAAAACCAGUACUGUACCAGAAAACUGAGGGUCCCAGUUCUGGUCCCACCACCUUCCAAGUGUUUGCCAUGUGGC | 0.585
CCCCAUCUGUAAAAUGGGCUGAUUGGCCUCCACGGUCAGAGCGGCCAUCUGGCUGUGCCAUCCUGCAUUUUUAGGAAUGGAAAGCAGGCCUCUGAGGCAGUGGACAGGAA | 1.66
UAUGAAUGAGAAUGGGUCUUGAAAAUAUGUGUGCACCCCUAAGCUUGAAAUUGAUCUCUAUACUCUAGCCCCUCAGCCAGCCUCCUUCCUGUUGUCUGAAACCUGGAGCU | 5.34
CUCCAAAGGAAGUCUAGGAGCUGGGAGGAAAAGAAAAGAGGGGAAAAUGAGUUUUUAUGGGGCUGAACGGGGAGAAAAGGUCAUCAUCGAUUCUACUUUAGAAUGAGAGU | 2.92

Set 3
Cell line: HEK-293T
Organism: VSV pseudotyped with SARS-CoV-2 spike
Tested at: 10 µM
Time: 16 h
Structure (SMILES) | pseudovirus infection [%]
O=C(O)COCCN1CCN([C@H](c2ccccc2)c2ccc(Cl)cc2)CC1 | 74.6
CN1CCC[C@H]1c1cccnc1 | 96.5
Cc1ccccc1C(OCCN(C)C)c1ccccc1 (centres unmarked) | 40.4
C[C@@H]1C[C@H]2[C@@H]3C[C@H](F)C4=CC(=O)C=C[C@]4(C)[C@@]3(F)[C@@H](O)C[C@]2(C)[C@@]1(O)C(=O)CO | 82
C[N+]1(C)CCC(OC(=O)C(O)(c2ccccc2)C2CCCC2)C1 (centres unmarked) | 91.2

Set 4
Organism: SARS-CoV-2
Observed: cytopathic effect
Cells: Vero E6
Tested at: 10 µM
Structure (SMILES) | inhibition [%]
O=C(O)c1cc(N2N=C(C(F)(F)F)/C(=C/c3ccc(-c4ccccc4)o3)C2=O)ccc1Cl | 3.6
CCOc1ccc(Nc2nc(-c3c(C)nc4ccccn34)cs2)cc1 | -2.2
CCN(CC)C(=S)[S-].O.O.O.[Na+] | -0.14
CCC(=O)OCN1C(=O)C=CC1=O | -3.6
Oc1cc2c(cc1C(c1ccc(C(F)(F)F)cc1)N1CCOCC1)OCO2 (centres unmarked) | 6

Set 5
Target: Replicase polyprotein 1ab, nsp13 helicase (rep, Severe acute respiratory syndrome coronavirus 2, UniProt P0DTD1)
Mode: inhibitor
Tested at: 20 µM
SMILES | inhibition [%]
Cc1c(N)c(=O)n(-c2ccccc2)n1C | 1.3
Nc1nc(=S)c2ncn([C@@H]3O[C@H](CO)[C@@H](O)[C@H]3O)c2[nH]1 | 44.1
CCOc1ccc(NC(=S)N2CCC(C(O)(c3ccccc3)c3ccccc3)CC2)cc1 | 9.64
CC(C)(C)c1cc(C=C(C#N)C#N)cc(C(C)(C)C)c1O | 2.53
CCCCN1C[C@H](O)[C@@H](O)[C@H](O)[C@H]1CO | 4.19
CCCCCCCCCCCCCCCCO | 6.91
NCc1ccc(S(N)(=O)=O)cc1 | -1.64
CCC(=O)OCC(=O)[C@@]1(OC(=O)CC)[C@@H](C)C[C@H]2[C@@H]3CCC4=CC(=O)C=C[C@]4(C)[C@@]3(Cl)[C@@H](O)C[C@@]21C | -1.43
CNC(=O)c1c(C)oc2cc(Oc3ncnc4cc(OC)c(OC)cc34)ccc12 | 1.57
CC/C(=C(/c1ccc(/C=C/C(=O)O)cc1)c1ccc2[nH]ncc2c1)c1ccc(F)cc1Cl | 11.2
C[C@H](Oc1ccc(S(C)(=O)=O)cc1C(=O)N1CCN(c2ncc(C(F)(F)F)cc2F)CC1)C(F)(F)F | -1.09
Cc1ccc(NC(=O)c2ccc(CN3CC[C@H](N(C)C)C3)c(C(F)(F)F)c2)cc1Nc1nccc(-c2cncnc2)n1 | 6.95
CC(C)=CCC/C(C)=C/CC/C(C)=C/CC/C(C)=C/CC1=C(C)C(=O)c2ccccc2C1=O | 6.53
Cc1cc2sc(NC(=O)Cc3ccccc3)nc2cc1Cl | -2.32
CCCCNc1c(C(=O)OCC)c(C)nc2c1cnn2CC | 3.14
CCCC(=O)C1(c2ccccc2)CCN(C(=O)[C@@H](Cc2ccc(OC)cc2)NC(=O)[C@@H](N)Cc2cncn2C)CC1 | 0.07
O=C(Nc1ccccc1)N1CCN(c2nc(-c3ccccc3)ns2)CC1 | 0.9
CC(C)CC(N)C1(c2ccc(Cl)cc2)CCC1 (centres unmarked) | -3.34
C=C[C@@H]1C[C@]1(NC(=O)[C@@H]1C[C@@H](Oc2ncc(OC)c3ccc(Cl)cc23)CN1C(=O)[C@@H](NC(=O)OC(C)(C)C)C(C)(C)C)C(=O)NS(=O)(=O)C1CC1 | 4.02
O=C(O)c1ccccc1NCCc1ccccc1 | 13.8
N#C/C(=C1/SCC(c2ccccc2Cl)S1)n1ccnc1 (centres unmarked) | 11.4
O=C(O)P(=O)(O)O | 0.28
OCCC#Cc1nc(-c2ccc(F)cc2)c(-c2ccncc2)n1CCCc1ccccc1 | 10.9
CC(C)NCC(O)c1cc(O)cc(O)c1 (centres unmarked) | 3.74
Cn1nnc(-c2ccc(-c3ccc(N4C[C@H](COP(=O)(O)O)OC4=O)cc3F)cn2)n1 | 7.03

Set 6
Target: Fragile X messenger ribonucleoprotein 1, C-terminal low-complexity region (Fmr1, Mus musculus, UniProt P35922)
Technique: RNA Bind-n-Seq
Form: RNA
Medium: in vitro
Tested at: 200 nM
Notes: whole 134-nt RNA, ends assumed
With: 150 mM KCl
Reference: input library
Reading: higher = stronger binding
All sequences stand within: GGGAGUUCUACAGUCCGACGAUC … UGGAAUUCUCGGGUGUCAAGG
Strand | log2 enrichment
UGUUUAUCCAACAUAUGAUUUUGCCUGCCCCAUAGUUGACAGCAUCGAAGGUGUUACACAUGCCCUGAGAACAACAGAAUACCAUGACAG | 0.222
UGGGAGGUGGAUUUUGUUUAUUUUUUUAGCUCAUUUCCAGGGGUGGGAAUUAUUUUUUAAUAUGUGUCAUGAAUAAAGUUGUUUUUGAAA | 0.3
AGUCCUGUGCUACACAUCGUAUGUACCGAAUCGGGAAAAAGGGUUUUUUUGGGAGGGAAAGUAUUAUGUUACGCCGUUCGGAUCUGCACU | 0.474
UAACUUUAGAGGAGGAUCUGAUGGAUAUGGCAGUGGACGUGUAUUUGGGGAUGGCUAUAAUGGGUAUGGAGGAGGACCUGGAGGUGGCAA | 0.2
ACCAUGCAGGUGGGCAUCUUUGGGAAGUGGGGCAAGGGGGGGAUAGGGAGGGGGGUAAUACUUUGGGAACAGGUGGUCCCAGGUCGUUUC | 0.686
UGGGAGGUGGAUUUUGUUUAUUUUUUUAGCUCAUUUCCAGGGGUGGGAAUUUUUUUUUAAUAUGUGUCAUGAAUAACGUUGUUUUUGAAA | 0.208
ACCAUGUAGGUGGGCAUCUUUGGGAAGUGGGGCAAGGGGGGGAUAGGGAGGGGGGUAACACUUUGGGAACAGGUGGUCCCAGGUCGUUUC | 0.732
AGUCCUGUGCUACACAUCGUAUGUACCGAAUCGGGAAAAAGGGAAAAAAAGGGAGGGAAAGUAUUAUGUUACGCCGUUCGGAUCUGCACU | 0.423

Some of these lines once more (set 3):
Structure (SMILES) | pseudovirus infection [%]
O=C(O)COCCN1CCN([C@H](c2ccccc2)c2ccc(Cl)cc2)CC1 | 74.6
CN1CCC[C@H]1c1cccnc1 | 96.5
Cc1ccccc1C(OCCN(C)C)c1ccccc1 (centres unmarked) | 40.4
C[C@@H]1C[C@H]2[C@@H]3C[C@H](F)C4=CC(=O)C=C[C@]4(C)[C@@]3(F)[C@@H](O)C[C@]2(C)[C@@]1(O)C(=O)CO | 82
C[N+]1(C)CCC(OC(=O)C(O)(c2ccccc2)C2CCCC2)C1 (centres unmarked) | 91.2
